Experimental data gathered from unrelated publications.
Protocols differ between the studies behind these lines.
T1: DNA aptamer; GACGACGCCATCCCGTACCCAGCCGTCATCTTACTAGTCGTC
T2: DNA aptamer; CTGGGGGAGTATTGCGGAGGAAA
T3: DNA aptamer; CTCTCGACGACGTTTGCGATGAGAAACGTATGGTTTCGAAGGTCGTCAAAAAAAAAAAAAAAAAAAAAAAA
T4: DNA aptamer; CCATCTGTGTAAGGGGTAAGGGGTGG
T5: DNA aptamer; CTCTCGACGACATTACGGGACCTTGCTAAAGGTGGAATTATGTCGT
T6: DNA aptamer C50A; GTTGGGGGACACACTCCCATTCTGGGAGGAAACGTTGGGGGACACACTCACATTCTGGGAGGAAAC
T7: DNA aptamer, abasic dSpacer opposite cytosine; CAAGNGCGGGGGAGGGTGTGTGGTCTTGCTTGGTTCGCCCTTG
T8: DNA aptamer; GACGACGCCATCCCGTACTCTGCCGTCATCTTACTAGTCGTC
T9: DNA aptamer; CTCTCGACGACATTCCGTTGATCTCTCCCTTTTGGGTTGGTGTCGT
T10: DNA aptamer; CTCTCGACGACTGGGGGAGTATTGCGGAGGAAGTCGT

| SMILES | target | assay | system | conditions | measurement | value |
| --- | --- | --- | --- | --- | --- | --- |
| CC1(C)S[C@@H]2[C@H](NC(=O)Cc3ccccc3)C(=O)N2[C@H]1C(=O)O | T1, DNA aptamer | competition, fluorescence displacement |  | together with: ThT 10 µM | binding | no binding |
| Nc1ncnc2c1ncn2[C@@H]1O[C@H](COP(=O)(O)OP(=O)(O)OP(=O)(O)O)[C@@H](O)[C@H]1O | T2, DNA aptamer | amperometry |  | qualitative | binding | binds |
| Nc1ncnc2c1ncn2[C@@H]1O[C@H](COP(=O)(O)OP(=O)(O)OP(=O)(O)O)[C@@H](O)[C@H]1O | T3, DNA aptamer | probe displacement, competitor, SPR |  | 25 °C | binding | binds |
| COc1cccc2c1C(=O)c1c(O)c3c(c(O)c1C2=O)C[C@@](O)(C(=O)CO)C[C@@H]3O[C@H]1C[C@H](N)[C@H](O)[C@H](C)O1 | T4, DNA aptamer | square-wave voltammetry | whole bovine blood | 37 °C, apparent, Hill fit | Kd | 22 µM |
| O=c1[nH]c(=O)c2[nH]c(=O)[nH]c2[nH]1 | T5, DNA aptamer | probe displacement, competitor, fluorescence |  |  | binding | binds |
| Nc1ncnc2c1ncn2[C@@H]1O[C@H](CO)[C@@H](O)[C@H]1O | T6, DNA aptamer C50A | native PAGE mobility shift |  | together with: Mg2+ 10 mM | binding | binds |
| CN(C)c1ccc(C(=N)c2ccc(N(C)C)cc2)cc1 | T7, DNA aptamer, abasic dSpacer opposite cytosine | fluorescence enhancement |  |  | binding | binds |
| CC1(C)S[C@@H]2[C@H](NC(=O)[C@H](N)c3ccccc3)C(=O)N2[C@H]1C(=O)O | T8, DNA aptamer | ITC |  |  | Kd | 4 µM |
| CN(C)[C@@H]1C(=O)C(C(N)=O)=C(O)[C@@]2(O)C(=O)C3=C(O)c4c(O)cccc4[C@@](C)(O)[C@H]3[C@H](O)[C@@H]12 | T9, DNA aptamer | probe displacement, competitor, fluorescence |  |  | binding | binds |
| Nc1ncnc2c1ncn2[C@@H]1O[C@H](CO)[C@@H](O)[C@H]1O | T10, DNA aptamer | competition, fluorescence strand displacement |  | together with: adenosine 100 µM | binding | binds |
| Nc1ncnc2c1ncn2[C@@H]1O[C@H](COP(=O)(O)OP(=O)(O)OP(=O)(O)O)[C@@H](O)[C@H]1O | T2, DNA aptamer | square wave voltammetry |  | apparent, one-site Langmuir fit, E-AB sensor | Kd | 61 µM |

Excerpt of the above:
| SMILES | target | assay | system | conditions | measurement | value |
| --- | --- | --- | --- | --- | --- | --- |
| CN(C)[C@@H]1C(=O)C(C(N)=O)=C(O)[C@@]2(O)C(=O)C3=C(O)c4c(O)cccc4[C@@](C)(O)[C@H]3[C@H](O)[C@@H]12 | T9, DNA aptamer | probe displacement, competitor, fluorescence |  |  | binding | binds |
